Results of several laboratories.
Compare with care: the assays were run in different laboratories. Several values in a cell are separate wells, animals, samples, runs or records.
Organism: Pseudomonas aeruginosa

CCCC(=O)C#Cc1ccc(F)c(F)c1 gave an IC50 of 25 µM (biofilm formation; PA14; static).
Cc1cccc(C(=O)Sc2cccccc2=O)c1 gave an MIC80 of greater than 71.4 µM (microbial growth, broth dilution; ATCC27853).
For CCCCCCCCCCCCn1nnc(CC(=O)O)n1, the elastase production was 70.9% (elastin-Congo red; PAO1 wild type; 100 µM, 20 h; baseline: DMSO).
The inhibition zone of COc1c(C)c(OC(=O)c2ccccc2)c(C)c(OC(=O)c2ccccc2)c1C(=O)/C=C/c1ccccc1 is reported as 10 mm (microbial growth, well diffusion; ATCC27853; 5 µg/mL).
With CC(C)C1=CC2=CCC3C(C)(C(=O)OCCC[N+](C)(C)C)CCCC3(C)C2CC1 (stereo not drawn) the inhibition zone was 10 mm (microbial growth, disc diffusion; ATCC27853; 62.5 µg/disc, 24 h).
The MBC of CCCCCCCCCCCC(=O)Oc1c(C)c(OC)c2c(c1C)OC(=O)[C@@H](CCCCCCCCCC)[C@]2(O)/C=C/c1ccccc1 (relative stereo) is reported as greater than 5000 µg/mL (microbial killing, broth dilution; ATCC27853).
The inhibition zone of CC(CCCOC(=O)CCC[N+](C)(C)C)C1CCC2C3CCC4CC(OC(=O)CCC[N+](C)(C)C)CCC4(C)C3CCC12C (stereo not drawn) is reported as 9 mm (microbial growth, disc diffusion; ATCC27853; 62.5 µg/disc, 24 h).
CC[C@H](C)CCCCC(=O)N[C@@H](CCN)C(=O)N[C@H](C(=O)N[C@@H](CCN)C(=O)N[C@H]1CCNC(=O)[C@H]([C@@H](C)O)NC(=O)[C@H](CCN)NC(=O)[C@H](CCN)NC(=O)[C@H](CC(C)C)NC(=O)[C@@H](CC(C)C)NC(=O)[C@H](CCN)NC1=O)[C@@H](C)O gave a bacterial count of 0 log CFU (PAO1; 30 min).
CCCCCCCC(=O)Oc1c(C)c(OC)c2c(c1C)OC(=O)[C@@H](CCCCCC)[C@]2(O)/C=C/c1ccccc1 (racemic) has an MBC of greater than 5000 µg/mL (microbial killing, broth dilution; ATCC27853).
O=C(Nc1ccccc1NC(=O)c1cccc(Cl)c1)c1cccc(Cl)c1 gave an elastase production of 69.8% (elastin-Congo red; PAO1 wild type; 100 µM, 20 h; baseline: DMSO).
The MBC of CCCCCC(=O)Oc1c(C)c(OC)c2c(/C=C/c3ccccc3)c(CCCC)c(=O)oc2c1C is reported as greater than 5000 µg/mL (microbial killing, broth dilution; ATCC27853).
O=C(Cc1ccc(Br)cc1)N[C@H]1CCOC1=O gave an elastase production of 73% (elastin-Congo red; PAO1 wild type; 100 µM, 20 h).
CN(C)S(=O)(=O)c1ccc(S(=O)(=O)N2CCC(n3c(=O)[nH]c4ccccc43)CC2)cc1 — result for “lung bacterial burden”: 4.39 log CFU and 4.75 log CFU and 5.57 log CFU and 7.79 log CFU and 4.58 log CFU and 4.54 log CFU and 4.91 log CFU (CIP 27853, mouse lung infection model, lung; 6 mg/kg, 24 h).
CCCCCCCCCC(=O)CC(=O)Nc1ccccc1 has an elastase production of 51.1% (elastin-Congo red; PAO1 wild type; 100 µM, 20 h).
For CCCCCCCCCC(=O)Oc1c(C)c(OC)c2c(c1C)OC(=O)C(CCCCCCCC)C2(O)C=Cc1ccccc1 (stereo not drawn), the MBC was greater than 5000 µg/mL (microbial killing, broth dilution; ATCC27853).

Some of these lines once more:
CCCC(=O)C#Cc1ccc(F)c(F)c1 gave an IC50 of 25 µM (biofilm formation; PA14; static).
The MBC of CCCCCCCCCCCC(=O)Oc1c(C)c(OC)c2c(c1C)OC(=O)[C@@H](CCCCCCCCCC)[C@]2(O)/C=C/c1ccccc1 (relative stereo) is reported as greater than 5000 µg/mL (microbial killing, broth dilution; ATCC27853).
